Measured values gathered from unrelated publications.
Each line is one published result; not all experiments were run side by side. Numbers after ± are the reported error.
HSPA1A with Hdj2: Heat shock 70 kDa protein 1A, with Hdj2 (HSPA1A, Homo sapiens, UniProt P0DMV8)
UniProt P0DMV8, sequence (whole entry, looked up): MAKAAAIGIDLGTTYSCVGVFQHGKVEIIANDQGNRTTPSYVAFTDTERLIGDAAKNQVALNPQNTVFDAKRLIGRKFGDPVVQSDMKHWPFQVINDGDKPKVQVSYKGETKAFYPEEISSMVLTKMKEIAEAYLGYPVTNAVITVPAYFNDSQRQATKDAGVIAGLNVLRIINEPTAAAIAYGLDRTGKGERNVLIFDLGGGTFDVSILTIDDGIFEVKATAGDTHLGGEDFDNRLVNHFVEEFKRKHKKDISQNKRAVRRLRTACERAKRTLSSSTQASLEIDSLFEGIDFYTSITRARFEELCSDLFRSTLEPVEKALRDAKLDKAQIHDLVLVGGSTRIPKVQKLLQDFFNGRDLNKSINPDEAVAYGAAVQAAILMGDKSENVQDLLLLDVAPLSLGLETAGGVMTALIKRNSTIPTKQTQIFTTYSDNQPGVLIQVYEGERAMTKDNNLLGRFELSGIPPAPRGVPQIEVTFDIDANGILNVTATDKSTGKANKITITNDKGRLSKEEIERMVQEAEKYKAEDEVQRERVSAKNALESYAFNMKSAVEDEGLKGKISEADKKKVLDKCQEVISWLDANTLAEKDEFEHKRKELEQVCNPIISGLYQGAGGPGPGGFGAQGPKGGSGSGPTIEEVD
MAL12: Alpha-glucosidase MAL12 (MAL12, Saccharomyces cerevisiae S288c, UniProt P53341)
UniProt P53341, sequence (whole entry, looked up): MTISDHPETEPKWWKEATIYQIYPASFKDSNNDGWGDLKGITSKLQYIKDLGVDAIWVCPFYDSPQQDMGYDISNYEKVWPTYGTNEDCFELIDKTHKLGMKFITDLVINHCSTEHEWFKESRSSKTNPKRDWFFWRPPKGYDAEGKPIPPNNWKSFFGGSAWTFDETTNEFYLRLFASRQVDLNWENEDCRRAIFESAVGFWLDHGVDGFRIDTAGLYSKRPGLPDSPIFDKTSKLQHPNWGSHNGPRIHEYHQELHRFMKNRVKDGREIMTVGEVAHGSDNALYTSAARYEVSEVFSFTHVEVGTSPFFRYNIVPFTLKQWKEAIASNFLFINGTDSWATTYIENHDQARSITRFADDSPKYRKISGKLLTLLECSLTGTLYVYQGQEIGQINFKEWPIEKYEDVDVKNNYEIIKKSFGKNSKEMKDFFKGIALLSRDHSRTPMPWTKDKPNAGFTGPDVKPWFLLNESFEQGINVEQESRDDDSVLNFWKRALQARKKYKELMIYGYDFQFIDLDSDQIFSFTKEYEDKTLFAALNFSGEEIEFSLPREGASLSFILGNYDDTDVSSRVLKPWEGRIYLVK
SCN9A: Sodium channel protein type 9 subunit alpha (SCN9A, Homo sapiens, UniProt Q15858)
UniProt Q15858, sequence (whole entry, looked up): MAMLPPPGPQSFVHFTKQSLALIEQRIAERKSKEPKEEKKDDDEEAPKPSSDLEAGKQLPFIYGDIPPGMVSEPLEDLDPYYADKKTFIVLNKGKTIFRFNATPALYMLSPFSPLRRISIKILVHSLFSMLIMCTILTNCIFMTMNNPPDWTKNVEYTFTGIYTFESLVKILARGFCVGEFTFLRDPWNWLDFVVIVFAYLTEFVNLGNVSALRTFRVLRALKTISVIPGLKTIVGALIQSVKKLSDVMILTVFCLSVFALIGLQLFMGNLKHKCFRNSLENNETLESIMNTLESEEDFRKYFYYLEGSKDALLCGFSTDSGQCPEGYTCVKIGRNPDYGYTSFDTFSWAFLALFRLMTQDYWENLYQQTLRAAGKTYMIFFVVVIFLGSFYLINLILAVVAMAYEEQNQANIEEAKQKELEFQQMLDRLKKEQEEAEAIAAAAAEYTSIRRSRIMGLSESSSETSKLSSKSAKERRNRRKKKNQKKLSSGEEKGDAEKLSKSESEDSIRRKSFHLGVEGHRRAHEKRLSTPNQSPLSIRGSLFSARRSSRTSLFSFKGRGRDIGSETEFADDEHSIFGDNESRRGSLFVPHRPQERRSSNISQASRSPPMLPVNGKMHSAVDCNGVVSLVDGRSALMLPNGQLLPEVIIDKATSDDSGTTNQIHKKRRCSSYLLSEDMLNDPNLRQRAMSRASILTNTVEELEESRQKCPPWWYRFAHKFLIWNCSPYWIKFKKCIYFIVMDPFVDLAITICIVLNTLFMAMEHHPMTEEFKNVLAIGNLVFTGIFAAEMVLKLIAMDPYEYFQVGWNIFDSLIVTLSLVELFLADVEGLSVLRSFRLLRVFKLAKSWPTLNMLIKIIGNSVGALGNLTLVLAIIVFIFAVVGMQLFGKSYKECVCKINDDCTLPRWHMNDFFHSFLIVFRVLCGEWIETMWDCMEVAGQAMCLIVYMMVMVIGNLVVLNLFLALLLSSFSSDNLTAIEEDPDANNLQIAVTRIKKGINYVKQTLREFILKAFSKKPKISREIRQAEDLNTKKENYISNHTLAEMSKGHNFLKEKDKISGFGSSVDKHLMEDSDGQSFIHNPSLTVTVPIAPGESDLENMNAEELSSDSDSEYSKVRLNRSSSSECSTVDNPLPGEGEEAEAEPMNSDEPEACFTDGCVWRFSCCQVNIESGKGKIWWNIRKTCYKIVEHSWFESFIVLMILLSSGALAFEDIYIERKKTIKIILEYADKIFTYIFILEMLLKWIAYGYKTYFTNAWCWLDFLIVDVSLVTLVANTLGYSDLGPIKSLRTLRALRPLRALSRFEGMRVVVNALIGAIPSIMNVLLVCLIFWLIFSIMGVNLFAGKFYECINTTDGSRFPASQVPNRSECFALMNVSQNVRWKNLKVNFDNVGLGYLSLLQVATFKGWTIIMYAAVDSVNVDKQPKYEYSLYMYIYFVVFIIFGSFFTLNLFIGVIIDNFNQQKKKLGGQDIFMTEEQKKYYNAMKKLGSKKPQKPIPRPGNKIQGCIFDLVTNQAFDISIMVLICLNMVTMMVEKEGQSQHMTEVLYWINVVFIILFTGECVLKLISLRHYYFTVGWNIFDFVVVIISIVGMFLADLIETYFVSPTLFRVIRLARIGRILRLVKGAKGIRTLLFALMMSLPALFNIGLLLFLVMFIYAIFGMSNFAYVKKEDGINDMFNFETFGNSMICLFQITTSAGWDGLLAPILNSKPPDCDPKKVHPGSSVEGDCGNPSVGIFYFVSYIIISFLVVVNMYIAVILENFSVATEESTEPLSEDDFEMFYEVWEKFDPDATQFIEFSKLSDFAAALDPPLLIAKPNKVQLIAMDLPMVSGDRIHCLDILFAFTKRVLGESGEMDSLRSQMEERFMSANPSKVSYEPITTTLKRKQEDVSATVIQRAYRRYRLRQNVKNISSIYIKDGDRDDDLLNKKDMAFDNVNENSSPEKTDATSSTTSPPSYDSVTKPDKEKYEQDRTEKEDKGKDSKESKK
HBA1 with beta chain: Hemoglobin subunit alpha, with beta chain (HBA1, Homo sapiens, UniProt P69905)
UniProt P69905, sequence (whole entry, looked up): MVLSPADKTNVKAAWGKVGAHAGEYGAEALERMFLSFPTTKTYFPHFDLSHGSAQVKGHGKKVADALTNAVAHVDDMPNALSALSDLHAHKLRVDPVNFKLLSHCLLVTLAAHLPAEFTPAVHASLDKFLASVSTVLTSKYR
PDE1C: Dual specificity calcium/calmodulin-dependent 3',5'-cyclic nucleotide phosphodiesterase 1C (PDE1C, Homo sapiens, UniProt Q14123)
UniProt Q14123, sequence (whole entry, looked up): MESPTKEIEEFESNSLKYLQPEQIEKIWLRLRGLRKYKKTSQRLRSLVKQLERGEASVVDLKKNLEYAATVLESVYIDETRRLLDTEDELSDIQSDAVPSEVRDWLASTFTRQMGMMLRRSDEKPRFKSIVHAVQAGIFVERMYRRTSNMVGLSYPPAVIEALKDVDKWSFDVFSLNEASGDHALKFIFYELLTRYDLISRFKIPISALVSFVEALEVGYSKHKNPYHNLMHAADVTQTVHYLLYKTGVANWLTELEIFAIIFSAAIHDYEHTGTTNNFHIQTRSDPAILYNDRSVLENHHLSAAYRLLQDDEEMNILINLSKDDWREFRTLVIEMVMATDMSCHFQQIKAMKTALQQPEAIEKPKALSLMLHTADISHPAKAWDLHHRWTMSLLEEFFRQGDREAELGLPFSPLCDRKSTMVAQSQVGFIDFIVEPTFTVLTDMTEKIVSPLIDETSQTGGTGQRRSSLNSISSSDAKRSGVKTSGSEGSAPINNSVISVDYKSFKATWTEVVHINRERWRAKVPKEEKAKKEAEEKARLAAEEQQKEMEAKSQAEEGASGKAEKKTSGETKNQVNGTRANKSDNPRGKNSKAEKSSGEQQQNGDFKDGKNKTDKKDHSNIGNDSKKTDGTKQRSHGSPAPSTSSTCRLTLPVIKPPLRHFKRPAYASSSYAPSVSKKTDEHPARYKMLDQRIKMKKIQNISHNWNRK
T1: RNA repeat, r(CGG) repeat (Homo sapiens); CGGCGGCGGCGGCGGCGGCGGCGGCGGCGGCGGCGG
UniProt Q9NZC7, sequence (whole entry, unmodified, looked up): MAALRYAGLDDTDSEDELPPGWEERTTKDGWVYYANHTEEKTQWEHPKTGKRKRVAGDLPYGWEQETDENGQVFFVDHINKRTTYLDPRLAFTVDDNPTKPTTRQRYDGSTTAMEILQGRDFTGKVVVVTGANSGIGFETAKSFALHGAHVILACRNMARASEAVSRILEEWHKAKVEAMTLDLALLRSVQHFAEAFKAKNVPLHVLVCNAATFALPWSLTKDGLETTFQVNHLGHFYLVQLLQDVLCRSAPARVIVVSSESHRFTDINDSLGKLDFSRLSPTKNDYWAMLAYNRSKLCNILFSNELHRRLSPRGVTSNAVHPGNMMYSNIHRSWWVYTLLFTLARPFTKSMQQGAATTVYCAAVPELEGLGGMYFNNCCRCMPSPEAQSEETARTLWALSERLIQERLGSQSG
UniProt Q15758, sequence (whole entry, looked up): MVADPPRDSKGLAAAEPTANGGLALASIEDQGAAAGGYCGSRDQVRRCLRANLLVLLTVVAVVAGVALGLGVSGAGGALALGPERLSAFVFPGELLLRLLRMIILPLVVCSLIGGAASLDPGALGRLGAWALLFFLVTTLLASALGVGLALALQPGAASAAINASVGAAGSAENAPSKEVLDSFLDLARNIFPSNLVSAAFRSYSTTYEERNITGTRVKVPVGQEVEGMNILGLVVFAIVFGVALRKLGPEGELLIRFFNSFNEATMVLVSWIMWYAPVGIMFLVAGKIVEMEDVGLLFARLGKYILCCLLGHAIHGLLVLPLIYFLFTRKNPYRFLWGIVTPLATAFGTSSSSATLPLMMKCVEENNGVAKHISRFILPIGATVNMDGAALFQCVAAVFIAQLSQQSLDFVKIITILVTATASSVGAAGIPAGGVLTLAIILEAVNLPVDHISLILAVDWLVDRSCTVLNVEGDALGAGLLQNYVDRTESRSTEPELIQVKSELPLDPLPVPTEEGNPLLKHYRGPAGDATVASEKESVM

The remaining fluorescence of `CCCCC/C=C\C/C=C\C/C=C\C/C=C\CCCC(=O)OC(CO)CO` is reported as 65 ± 1.3% (Fatty acid-binding protein, liver (FABP1, Homo sapiens, UniProt P07148); binding, DAUDA displacement; concentration not given; baseline: no competitor).
`CCC/C=C/COC(C)=O`: “remaining 1-NPN fluorescence” 95.4 ± 1.9% (chemosensory protein 3 (Chilo suppressalis, UniProt V9PY40); binding, competitive ligand, fluorescence competitive binding; highest concentration tested, pH 7.4, protein 2 µM, together with: 1-NPN 2 µM; baseline: no ligand).
`CC1=C(C(=O)OCc2ccccc2)C(c2ccc(-c3ccccc3)cc2)NC(=O)N1Cc1ccc(-c2nnn[nH]2)cc1` (centres unmarked): “fold change in activity” -5 fold (HSPA1A with Hdj2; ATPase activity, inhibitor; 100 µM, Hsp40-stimulated activity, together with: Hdj2 Hsp70:Hsp40 1:0.5; baseline: DMSO, negative means inhibition).
The remaining binding of `CC/C=C/[C@H](CC)C/C(=C/[C@@]1(CC)C[C@H](CC)[C@H](CC(=O)O)OO1)CC` is reported as 100% (Neuropeptide Y receptor type 1 (NPY1R, Homo sapiens, UniProt P25929); ligand displacement, radioligand; 10 µg/mL, 30 min).
For `CC1=C(C(=O)OCc2ccccc2)C(c2ccc(-c3ccccc3)cc2)NC(=S)N1Cc1ccc(-c2nnn[nH]2)cc1` (centres unmarked), “fold change in activity” read -4.5 fold (HSPA1A with Hdj2; ATPase activity, inhibitor; 100 µM, Hsp40-stimulated activity, together with: Hdj2 Hsp70:Hsp40 1:0.5; baseline: DMSO, negative means inhibition).
For `COc1ccc(NC(=O)N2CCN(c3ccnc(Nc4ccc(Cl)cc4)n3)[C@@H](C)C2)cc1`, the activity ratio was roughly 3 fold (MAL12; enzyme activity, inhibitor; Saccharomyces cerevisiae; together with: p-nitrophenyl glucoside substrate; baseline: S over R enantiomer).
`COC(=O)c1scc(C)c1NC(=O)C(C)N1CCN(CCO)CC1` (centres unmarked): “capacity factor k′” 4.6 (SCN9A; cell membrane chromatography; higher = stronger binding).
`CC(C)C[C@H](NC(=O)[C@@H](NC(=O)[C@@H](N)[C@@H](C)O)C(C)C)C(=O)N1CCC[C@H]1C(=O)N1CCC[C@H]1C(=O)N1CCC[C@H]1C(=O)N1CCC[C@H]1C(=O)N[C@@H](Cc1ccc(O)cc1)C(=O)N[C@@H](C)C(=O)N[C@@H](Cc1c[nH]cn1)C(=O)N[C@@H](CCCNC(=N)N)C(=O)N[C@@H](CC(N)=O)C(=O)O` — result for “entropy term TΔS”: 0.85 ± 0.38 kcal/mol (WW domain-containing oxidoreductase, WW1 domain (WWOX, Homo sapiens, UniProt Q9NZC7); binding to WW1 domain, isothermal titration calorimetry; pH 7.0, 25 °C).
Under “open time constant 1”, `COc1ccc(OCC2c3cc(OC)c(OC)cc3CCN2C(=O)c2cccc(Cl)c2)cc1` (centres unmarked) is recorded as 0.036 ± 0.003 ms (Glutamate receptor ionotropic, NMDA 2D, with NR1 (Rattus norvegicus, UniProt Q62645); outside-out patch clamp; 10 µM, together with: GluN1 co-expressed).
`CCCCCCCCC(=O)NC1CNC1`: IC50 “inactive” (N-acylethanolamine-hydrolyzing acid amidase (NAAA, Homo sapiens, UniProt Q02083); enzyme activity, inhibitor, fluorogenic PAMCA hydrolysis; pH 4.5, together with: 5 µM PAMCA).
With `COc1c(O)cc(O)c2c(=O)cc(-c3ccc(O)cc3)oc12` the inhibition was 58.2% (MAL12; enzyme activity, inhibitor, absorbance; 25 µM).
`O=Cc1c(O)cccc1OCc1cccc(CO)n1` gave a koff of 0.00161 s⁻¹ (HBA1 with beta chain; binding, cation-exchange HPLC; 37 °C).
For `Cc1c2cc[n+](CCN3CCCCC3)cc2c(C)c2c1[nH]c1ccc(O)cc12`, the IC50 was 13 µM (T1, RNA repeat, r(CGG) repeat (Homo sapiens); DGCR8 displacement, competitor, TR-FRET; pH 7.5, 110 mM KCl, with yeast tRNA, together with: DGCR8 protein).
With `COc1cc2c(=O)c(OC)c(-c3ccccc3)oc2c(O)c1OC` the inhibition was greater than 99% (MAL12; enzyme activity, inhibitor; 250 µM).
`CQQEPDDLKQKACES`: “patients with IgE binding” 19% (human IgE; peptide microarray; peptide, peanut/walnut-allergic patient sera; concentration not given, 16 h, 4 °C).
With `COc1ccc(-c2cc(=O)c3ccc(O)cc3o2)cc1` the inhibition was 34.4% (MAL12; enzyme activity, inhibitor, absorbance; 100 µM).
`COc1cc2c(cc1OC)-c1c/c(=N\c3c(C)cc(C)cc3C)n(C)c(=O)n1CC2` — result for IC50: “inactive” (PDE1C; cAMP hydrolysis, inhibitor; up to 50 µM).
`CC(=O)N[C@@H]1[C@@H](O)[C@H](O[C@@H]2O[C@H](CO)[C@@H](O[C@@H]3O[C@H](CO[C@H]4O[C@H](CO[C@H]5O[C@H](CO)[C@@H](O)[C@H](O)[C@@H]5O)[C@@H](O)[C@H](O[C@H]5O[C@H](CO)[C@@H](O)[C@H](O)[C@@H]5O[C@H]5O[C@H](CO)[C@@H](O)[C@H](O)[C@@H]5O)[C@@H]4O)[C@@H](O)[C@H](O[C@H]4O[C@H](CO)[C@@H](O)[C@H](O)[C@@H]4O[C@H]4O[C@H](CO)[C@@H](O)[C@H](O)[C@@H]4O)[C@@H]3O)[C@H](O)[C@H]2NC(C)=O)[C@@H](CO)O[C@H]1NC(=O)C[C@H](N)C(=O)O` has a fluorescence of 30900 RFU (NT1 (Nicotiana tabacum, UniProt Q94EW1); glycan binding, glycan array; together with: Alexa 488-labelled lectin 150 µg/mL).
With `CSCC[C@H](NC(=O)[C@@H]1CCCN1C(=O)[C@@H](NC(=O)[C@H](Cc1ccc(O)cc1)NC(=O)[C@H](C)NC(=O)[C@@H]1CCCN1C(=O)[C@@H]1CCCN1C(=O)[C@@H]1CCCN1C(=O)[C@H](CO)NC(=O)[C@H](Cc1c[nH]cn1)NC(=O)CN)[C@@H](C)O)C(=O)N[C@@H](CO)C(=O)O` the TΔS was -3.7 ± 1.14 kcal/mol (WW domain-containing oxidoreductase, WW2 domain Y85W (WWOX, Homo sapiens, UniProt Q9NZC7, Y85W); binding, ITC; pH 7.0, 25 °C).
`C#CCN(C)Cc1ccccc1` has a remaining activity of 1.9% (Amine oxidase [flavin-containing] A (MAOA, Homo sapiens, UniProt P21397); enzyme activity, inhibitor, dialysis reversibility; 4 × IC50, 24 h dialysis; baseline: no inhibitor).
Under “agonist and antagonist activity”, `CC(=O)N[C@@H](Cc1c[nH]c2ccccc12)C(=O)N[C@H](Cc1cccc2ccccc12)C(=O)N[C@@H](CCCNC(=N)N)C(=O)N[C@@H](Cc1c[nH]c2ccccc12)C(N)=O` is recorded as “inactive” (Melanocortin receptor 3 (Mus musculus, UniProt P33033); receptor activity, agonist, cell-based; up to 100 µM, Schild antagonism analysis).
For `VLASVSATHAKSSPY`, “patients with IgE binding” read 38% (human IgE; peptide microarray; peptide, peanut/walnut-allergic patient sera; concentration not given, 16 h, 4 °C).
`C[N+](C)(C)C[C@@H](O)CC(=O)[O-]` has an inhibition of 15.8% (Organic cation/carnitine transporter 2 (SLC22A5, Homo sapiens, UniProt O76082); transporter uptake, inhibitor; 2.5 µM).
`O=C1/C(=C/c2ccc(O)c(O)c2)Oc2cc(O)cc(O)c21`: “bimolecular quenching constant” greater than 2e+10 L/mol/s (Xanthine dehydrogenase/oxidase, oxidase form (XDH, Bos taurus, UniProt P80457); intrinsic fluorescence quenching; 298, 304, 310 K).
`COCc1ccc(C=O)o1` has a peak modification of 21% (HBA1 with beta chain; refers to: haemoglobin A adduct; human normal whole blood; 2 mM, 24 h, hematocrit 30%).
`O=C(O)c1cc2ccccc2cn1` — result for “UV signal reduction”: 91.7 ± 1.1% (PY04617 (Plasmodium yoelii, UniProt Q7RFT5); ultrafiltration HPLC-UV; 0.1 mM, pH 7.25, 4 °C, 6.5% DMSO, together with: methionine competitor).
With `SLFPVIYTQM` the MFI increase was 377% (H-2 class I histocompatibility antigen, K-B alpha chain, 26 (H2-K1, Mus musculus, UniProt P01901); H2-K binding, flow cytometry; peptide, RMA-S; 10 µg per 100 µL, 3 h).
For `N[C@@H](CCC(=O)Nc1ccc(-c2ccc(F)cc2)cc1)C(=O)O`, the [3H]-L-serine uptake was 95 ± 2% (Neutral amino acid transporter B(0) (SLC1A5, Homo sapiens, UniProt Q15758); PC-3; concentration not given, 5 min, 37 °C, together with: [3H]-L-serine 150 µM; baseline: basal uptake).
For `CCN1CCN(C(C)C(=O)Nc2c(C)csc2C(=O)OC)CC1` (centres unmarked), “capacity factor k′” read 4.6 (SCN9A; cell membrane chromatography; higher = stronger binding).
`CSc1ccc(/C=C2/C(C)=C(CC(=O)O)c3cc(F)ccc32)cc1` — result for IC50: “inactive” (PDE1C; cGMP hydrolysis, inhibitor; up to 200 µM).
The V1/2 shift of `O=c1c(O)c(-c2ccc(O)c(O)c2)oc2cc(O)ccc12` is reported as -9.6 ± 1.9 mV (Kcnh1 (Mus musculus, UniProt Q60603); inside-out patch clamp; Xenopus oocytes; 10 µM).
For `[Ca+2]`, “time to effect on deactivation” read 0.5 s (P2X purinoceptor 7 (P2rx7, Rattus norvegicus, UniProt Q64663); ion current, whole-cell patch clamp; HEK293, transfected; 2 mM).

Excerpt of the above:
The remaining fluorescence of `CCCCC/C=C\C/C=C\C/C=C\C/C=C\CCCC(=O)OC(CO)CO` is reported as 65 ± 1.3% (Fatty acid-binding protein, liver (FABP1, Homo sapiens, UniProt P07148); binding, DAUDA displacement; concentration not given; baseline: no competitor).
`CCC/C=C/COC(C)=O`: “remaining 1-NPN fluorescence” 95.4 ± 1.9% (chemosensory protein 3 (Chilo suppressalis, UniProt V9PY40); binding, competitive ligand, fluorescence competitive binding; highest concentration tested, pH 7.4, protein 2 µM, together with: 1-NPN 2 µM; baseline: no ligand).
`CC1=C(C(=O)OCc2ccccc2)C(c2ccc(-c3ccccc3)cc2)NC(=O)N1Cc1ccc(-c2nnn[nH]2)cc1` (centres unmarked): “fold change in activity” -5 fold (HSPA1A with Hdj2; ATPase activity, inhibitor; 100 µM, Hsp40-stimulated activity, together with: Hdj2 Hsp70:Hsp40 1:0.5; baseline: DMSO, negative means inhibition).
The remaining binding of `CC/C=C/[C@H](CC)C/C(=C/[C@@]1(CC)C[C@H](CC)[C@H](CC(=O)O)OO1)CC` is reported as 100% (Neuropeptide Y receptor type 1 (NPY1R, Homo sapiens, UniProt P25929); ligand displacement, radioligand; 10 µg/mL, 30 min).
